Measurements pooled from the literature.
“And” joins repeats or separate records; there may be more than shown. ± marks the error that the study gave.
UniProt Q15418, sequence (whole entry, looked up): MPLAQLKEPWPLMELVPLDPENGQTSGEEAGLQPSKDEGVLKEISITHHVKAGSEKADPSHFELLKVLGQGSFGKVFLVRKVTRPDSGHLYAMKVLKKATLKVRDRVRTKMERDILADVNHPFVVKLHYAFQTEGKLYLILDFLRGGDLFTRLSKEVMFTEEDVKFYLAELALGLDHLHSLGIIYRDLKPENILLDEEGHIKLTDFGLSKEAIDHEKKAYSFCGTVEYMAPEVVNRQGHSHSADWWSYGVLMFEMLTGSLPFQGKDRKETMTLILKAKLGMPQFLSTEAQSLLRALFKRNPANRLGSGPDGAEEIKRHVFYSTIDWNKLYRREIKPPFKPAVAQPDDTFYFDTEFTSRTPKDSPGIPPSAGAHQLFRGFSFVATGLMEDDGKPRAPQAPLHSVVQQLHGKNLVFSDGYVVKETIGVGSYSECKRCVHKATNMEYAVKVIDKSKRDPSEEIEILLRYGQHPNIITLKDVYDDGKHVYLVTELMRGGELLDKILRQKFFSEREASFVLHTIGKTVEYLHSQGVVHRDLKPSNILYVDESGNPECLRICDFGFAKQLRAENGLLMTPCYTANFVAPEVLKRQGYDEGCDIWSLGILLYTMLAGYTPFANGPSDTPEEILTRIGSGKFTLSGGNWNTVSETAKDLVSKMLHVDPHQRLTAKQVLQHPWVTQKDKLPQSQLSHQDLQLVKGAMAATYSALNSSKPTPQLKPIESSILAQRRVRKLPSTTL

| SMILES | target or system | test | test system | conditions | scale | endpoint | result |
| --- | --- | --- | --- | --- | --- | --- | --- |
| COc1ccccc1-c1n[nH]c2nc(N[C@H]3CC[C@H](NS(=O)(=O)CC(C)C)CC3)ncc12 |  | bead binding, competition bead pull-down, refers to: LINJ.32.1920 | Leishmania donovani extract | 10 µM | baseline: vehicle | relative abundance | 0.43 |
| CCCC[C@@H]1NC(=O)[C@H](Cc2ccc(O)cc2)NC(=O)[C@@H]2CCCN2C(=O)[C@H](CC(=O)O)NC(=O)[C@H](C)NC(=O)[C@H](Cc2ccccc2)NC(=O)[C@@H]2CSCCC(=O)N3CN(CN(C3)C(=O)CCSC[C@@H](C(=O)N[C@@H](C)C(N)=O)NC1=O)C(=O)CCSC[C@H](NC(C)=O)C(=O)N[C@@H](CC(C)(C)C)C(=O)N1CCC[C@H]1C(=O)N[C@@H](CCC(=O)O)C(=O)N[C@H](CCCCNC(=O)CCc1cn(CCOCCOCCOCCN(CCOCCOCCOCCC(=O)N[C@H]3CSCCC(=O)N4CN5CN(C4)C(=O)CCSC[C@H](NC(=O)[C@@H](CC(=O)O)NC(=O)[C@H](Cc4cccc6ccccc46)NC(=O)[C@@H]4CCCN4C3=O)C(=O)N[C@@H](CCSC)C(=O)N[C@@H](CCCCNC(=N)N)C(=O)N[C@@H](CC(=O)O)C(=O)N[C@@H](Cc3c[nH]c4ccccc34)C(=O)N[C@@H](CO)C(=O)N[C@@H]([C@@H](C)O)C(=O)N3CCC[C@H]3C(=O)N3C[C@H](O)C[C@H]3C(=O)N[C@@H](Cc3c[nH]c4ccccc34)C(=O)N[C@H](C(N)=O)CSCCC5=O)CCOCCOCCOCCn3cc(CCC(=O)NCCCC[C@H]4NC(=O)[C@H](CCC(=O)O)NC(=O)[C@@H]5CCCN5C(=O)[C@H](CC(C)(C)C)NC(=O)[C@@H](NC(C)=O)CSCCC(=O)N5CN6CN(C5)C(=O)CCSC[C@H](NC(=O)[C@H](Cc5ccc(O)cc5)NC(=O)[C@@H]5CCCN5C4=O)C(=O)N[C@@H](Cc4ccccc4)C(=O)N[C@@H](C)C(=O)N[C@@H](CC(=O)O)C(=O)N4CCC[C@H]4C(=O)N[C@@H](Cc4ccc(O)cc4)C(=O)N[C@@H](CCCC)C(=O)N[C@H](C(=O)N[C@@H](C)C(N)=O)CSCCC6=O)nn3)nn1)C(=O)N1CCC[C@H]1C(=O)N[C@@H](Cc1ccc(O)cc1)C(=O)N2 |  |  | Sprague-Dawley rat |  |  | unbound Vdss | 7 L/kg |
| CN1Cc2cc(Cl)ccc2-n2c(nnc2C2CCN(c3cccc([18F])n3)CC2)C1 |  |  | C57BL/6 mouse male, brain | intravenous, 3.7 MBq, 30 min |  | tissue uptake | 0.4 ± 0.01 %ID/g |
| CC(C)[C@H](NC(=O)[C@@H](NC(=O)[C@H](CCCNC(=N)N)NC(=O)[C@H](CCCNC(=N)N)NC(=O)[C@H](CCCNC(=N)N)NC(=O)[C@H](CCC(N)=O)NC(=O)[C@H](CCCNC(=N)N)NC(=O)[C@H](CCCNC(=N)N)NC(=O)[C@H](CCCCN)NC(=O)[C@H](CCCCN)NC(=O)[C@H](CCCNC(=N)N)NC(=O)CN)[C@@H](C)O)C(=O)N[C@H](C(=O)N[C@@H](CO)C(=O)N1CCC[C@H]1C(=O)O)[C@@H](C)O |  |  | ICR mice, female, spleen | intranasal, 10 mg/kg daily, 4 weeks |  | organ weight | 0.098 ± 0.02 g |
| CC[C@H](C)[C@H](NC(=O)[C@H](CCCCN)NC(=O)CNC(=O)[C@H](CC(C)C)NC(=O)[C@H](Cc1ccccc1)NC(=O)[C@H](CCCCN)NC(=O)[C@H](CO)NC(=O)[C@H](Cc1ccccc1)NC(=O)[C@H](Cc1c[nH]c2ccccc12)NC(=O)[C@H](CCC(N)=O)NC(=O)[C@@H](NC(=O)[C@H](Cc1ccccc1)NC(=O)CCCCCNC(=O)CN1CCN(CC(=O)O)CCN(CC(=O)O)CCN(CC(=O)O)CC1)C(C)C)C(=O)N[C@@H](CCC(=O)O)C(=O)N1CCC[C@H]1C(=O)N[C@@H](CC(=O)O)C(=O)N[C@H](C(=O)N[C@@H](CO)C(=O)N[C@@H](CCC(N)=O)C(=O)N[C@H](C(=O)N[C@@H](CCC(N)=O)C(=O)N[C@@H](CC(=O)O)C(=O)N1CCC[C@H]1C(=O)N[C@@H](CC(N)=O)C(=O)N[C@@H](CC(=O)O)C(=O)N[C@@H](CCC(N)=O)C(=O)N[C@@H](Cc1ccc(O)cc1)C(=O)N[C@@H](CCC(=O)O)C(=O)N1CCC[C@H]1C(=O)N[C@@H](Cc1ccccc1)C(=O)O)C(C)C)C(C)C [copper-64 labelled] |  | dynamic PET | mouse, CT26 tumour, untreated, tumour | intravenous, 100 µCi/mouse, 50 s |  | SUVmean | 0.49 SUV |
| CC(C)(C)C(=O)OCOP(=O)(OCOC(=O)C(C)(C)C)C1CCCN(O)C1=O (stereo not shown) | MOLT-4 |  |  |  |  | log LC50 | > -4 log M |
| CCN(CC)CCOc1ccc(-c2nnn(Cc3ccc(OC)cc3)c2N)cc1 |  | metabolic stability | dog, liver microsomes |  |  | half-life | 45.9 min |
| O=C1NC2(CC2)COc2ncc(F)cc2[C@H]2COCCN2c2ccn3ncc1c3n2 |  |  | Sprague-Dawley rat, female, blood | oral, 10 mg/kg/day, 4 weeks, end of recovery, subacute toxicity |  | mean corpuscular volume | 57.3 ± 1.6 fL |
| CC(C)[C@@H]1NC(=O)CNC(=O)[C@H](CC(N)=O)NC(=O)[C@H](CCCNC(=N)N)NC(=O)[C@H](Cc2ccc(O)cc2)NC(=O)[C@H](C(C)C)NC(=O)[C@@H](NC(=O)[C@@H](NC(=O)[C@H](CC(N)=O)NC(=O)[C@H](Cc2c[nH]c3ccccc23)NC(=O)[C@H](C)NC(=O)[C@H](Cc2ccccc2)NC(=O)CNC(=O)[C@H](CCCCN)NC(=O)[C@H](Cc2ccccc2)NC(=O)[C@H](Cc2ccccc2)NC(=O)[C@H](CCCCN)NC(=O)OCC2c3ccccc3-c3ccccc32)C(C)C)CSSC[C@@H](C(=O)N[C@@H](Cc2c[nH]cn2)C(=O)N[C@@H](CCCNC(=N)N)C(=O)N[C@@H](CCCNC(=N)N)C(=O)N[C@@H](C)C(=O)N[C@@H](CC(N)=O)C(N)=O)NC(=O)[C@H](C(C)C)NC(=O)[C@H](CCCNC(=N)N)NC1=O |  |  | ICR mouse, blood | intramammary, 10 mg/kg, day 5, 3 d dosing |  | creatinine | 82.7 ± 3.65 µmol/L |
| N=C(N)NCCC[C@H](NC(=O)[C@H](CCCNC(=N)N)NC(=O)[C@H](CCCNC(=N)N)NC(=O)[C@H](CCC(N)=O)NC(=O)[C@H](CCCNC(=N)N)NC(=O)[C@H](CCCNC(=N)N)NC(=O)[C@H](CCCCN)NC(=O)[C@H](CCCCN)NC(=O)[C@H](CCCNC(=N)N)NC(=O)CNC(=O)[C@H](Cc1ccc(O)cc1)NC(=O)[C@H](Cc1ccccc1)NC(=O)[C@H](Cc1ccccc1)NC(=O)[C@H](Cc1ccccc1)NC(=O)OCC1c2ccccc2-c2ccccc21)C(=O)O |  | TEM | PBS 10 mM | 64 µM, overnight, pH 7.4 |  | nanorod diameter | 33.4 ± 6.8 nm |
| CC[C@H](C)[C@H](NC(=O)[C@H](CO)NC(=O)[C@H](Cc1ccc(O)cc1)NC(=O)[C@H](Cc1ccc(O)cc1)NC(=O)[C@H](CC(N)=O)NC(=O)CNC(=O)[C@H](CO)NC(=O)[C@H](Cc1ccc(O)cc1)NC(=O)[C@H](CO)NC(=O)[C@H](CO)NC(=O)[C@H](CC(N)=O)NC(=O)COCCOCCNC(=O)CN1CCN(CC(=O)O)CCN(CC(=O)O)CCN(CC(=O)O)CC1)C(=O)N[C@@H](CC(C)C)C(N)=O [copper-64 labelled] |  | dynamic PET | KPC mouse Ptf1a-CreER tdTomato, metastases | intravenous, 4.6 MBq/mouse, 5.5 min, 84 d after tamoxifen |  | tissue uptake | 15.3 %ID/mL |
| C(#Cc1cncc(OC[C@@H]2CCN2)c1)c1ccccc1 |  |  | male Sprague-Dawley rat, plasma | oral, 75 mg/kg, 5 h |  | concentration | 300 ng/mL |
| CCCCC[C@@H]1OC(=O)[C@@H](C)N(C)C(=O)[C@H](CCCCC)N(C)C(=O)[C@@H](C)N(C)C(=O)[C@H](CCCCC)N(C)C(=O)[C@@H](C)N(C)C(=O)[C@H](CCCCC)OC(=O)[C@@H](C)N(C)C1=O |  | PAMPA, HPLC-UV |  | 500 µM, pH 7.4 |  | log Papp | -5.37 ± 0.04 |
| N=C(N)NCCC[C@@H](NC(=O)[C@H](N)Cc1c[nH]c2ccccc12)C(=O)N[C@H](CCCCN)C(=O)N[C@H](Cc1c[nH]c2ccccc12)C(=O)N[C@H](CCCNC(=N)N)C(=O)N[C@H](CCCCN)C(=O)N[C@H](Cc1c[nH]c2ccccc12)C(=O)N[C@H](CCCNC(=N)N)C(=O)N[C@H](CCCCN)C(=O)N[C@H](Cc1c[nH]c2ccccc12)C(=O)N[C@H](CCCNC(=N)N)C(=O)N[C@H](CCCCN)C(N)=O |  |  | mouse | intraperitoneal, 40 mg/kg single dose, day 5 |  | survival | 75% |
| COc1ccccc1-c1n[nH]c2nc(NC3CCN(C(=O)Cc4ccc(F)cc4F)CC3)ncc12 |  | bead binding, competition bead pull-down, refers to: LINJ.23.0120 | Leishmania donovani extract | 10 µM | baseline: vehicle | relative abundance | 1.01 |
| Cc1ccc(NS(=O)(=O)c2c(C(=O)N3CCCCCC3)c(C)n(C)c2C)c(Cl)c1 | CV-1 |  | African green monkey cells | 3.704 µM, 60 (unit not given) |  | viability | 100% and 92.3% |
| N#[11C]c1ccc(-c2csc(NN=C3CCCC3)n2)cc1 |  |  | C57BL/6 mouse, male | intravenous, 3 MBq, 1 min |  | uptake in testis | 1 ± 0.06 %ID/g |
| C=C1NC(=O)[C@H](CO)NC(=O)[C@H](CSCC(N)=O)NC(=O)CNC(=O)[C@H](Cc2ccc(O)cc2)NC(=O)[C@H](C)NC(=O)[C@H](CO)NC(=O)[C@H](CC(=O)O)NC(=O)CNC(=O)[C@H](CC(C)C)NC(=O)[C@H](Cc2c[nH]c3ccccc23)NC(=O)[C@H](Cc2c[nH]c3ccccc23)NC(=O)c2ccc(-c3nc(C(=O)OC)cs3)nc2-c2csc1n2 |  | LC-MS | human serum | 37 °C |  | t1/2 | 3.67 days |
| CN(C)[C@H]1C[C@@]23CC[C@@]4(O2)C(=CC[C@]2(C)[C@@H](c5ccc6ccncc6c5)CC[C@H]24)C=C3[C@@H](O)[C@@H]1O | Ribosomal protein S6 kinase alpha-1, kinase domain 2 (RPS6KA1, Homo sapiens, UniProt Q15418) | ATP probe labelling, inhibitor, KiNativ profiling |  | 1 µM |  | inhibition | -9.5% |

Excerpt of the above:
| SMILES | target or system | test | test system | conditions | scale | endpoint | result |
| --- | --- | --- | --- | --- | --- | --- | --- |
| N=C(N)NCCC[C@H](NC(=O)[C@H](CCCNC(=N)N)NC(=O)[C@H](CCCNC(=N)N)NC(=O)[C@H](CCC(N)=O)NC(=O)[C@H](CCCNC(=N)N)NC(=O)[C@H](CCCNC(=N)N)NC(=O)[C@H](CCCCN)NC(=O)[C@H](CCCCN)NC(=O)[C@H](CCCNC(=N)N)NC(=O)CNC(=O)[C@H](Cc1ccc(O)cc1)NC(=O)[C@H](Cc1ccccc1)NC(=O)[C@H](Cc1ccccc1)NC(=O)[C@H](Cc1ccccc1)NC(=O)OCC1c2ccccc2-c2ccccc21)C(=O)O |  | TEM | PBS 10 mM | 64 µM, overnight, pH 7.4 |  | nanorod diameter | 33.4 ± 6.8 nm |
| CC[C@H](C)[C@H](NC(=O)[C@H](CO)NC(=O)[C@H](Cc1ccc(O)cc1)NC(=O)[C@H](Cc1ccc(O)cc1)NC(=O)[C@H](CC(N)=O)NC(=O)CNC(=O)[C@H](CO)NC(=O)[C@H](Cc1ccc(O)cc1)NC(=O)[C@H](CO)NC(=O)[C@H](CO)NC(=O)[C@H](CC(N)=O)NC(=O)COCCOCCNC(=O)CN1CCN(CC(=O)O)CCN(CC(=O)O)CCN(CC(=O)O)CC1)C(=O)N[C@@H](CC(C)C)C(N)=O [copper-64 labelled] |  | dynamic PET | KPC mouse Ptf1a-CreER tdTomato, metastases | intravenous, 4.6 MBq/mouse, 5.5 min, 84 d after tamoxifen |  | tissue uptake | 15.3 %ID/mL |
| C(#Cc1cncc(OC[C@@H]2CCN2)c1)c1ccccc1 |  |  | male Sprague-Dawley rat, plasma | oral, 75 mg/kg, 5 h |  | concentration | 300 ng/mL |
